Published values from different studies.
Protocols differ between the studies behind these lines. ± marks the error that the study gave.

With `COc1ccc(-n2nc(C(N)=O)c3c2C(=O)N(c2ccc(N4CCCCC4=O)cc2)CC3)cc1` the renal clearance was 24.3 ± 1.38 mL/min (population PK; human, plasma; oral).
`NC[C@@]1(CC(=O)O)[C@@H]2CC[C@H]3C[C@@H]2[C@@H]1C3` has a renal clearance of 132 ± 23.3 mL/min (human, normal renal function, urine; oral, 20 mg single dose).
`CC(=O)N(C)[C@H]1CCN(C(=O)c2cnc3c(c2)C[C@](C)(c2ccc(F)cc2)N3)C1` has a renal clearance of 149 mL/min (healthy male human, urine; oral, 15 mg once daily, 0-48 h steady state, geometric mean).
For `Cc1cc(-c2nccc3c2ccn3CC(=O)Nc2ccc(-c3cnccn3)cn2)ccn1`, the renal clearance was 6.82 mL/min (human, plasma and urine; oral, 20 mg single dose, geometric mean).
For `COc1ccc(F)cc1C(=O)NCc1ccc(-c2nn([C@@H](C)C(F)(F)F)c(N)c2C(N)=O)cc1`, the renal clearance was 2 mL/min (human male, plasma and urine; intravenous, 22 µg).
With `O=C(c1nc2n(n1)[C@H](c1ccccc1)C[C@@H]2F)C1CC1` the renal clearance was 0.182 mL/min (human, fasted; 75 mg single dose).
The renal clearance of `C[C@@H](N)c1cc(Cl)ccc1Cn1c(=S)[nH]c(=O)c2[nH]ccc21` is reported as 235 mL/min (human, both sexes, matched healthy controls, urine and plasma; oral, 2.5 mg single dose, 0-24 h urine collection, geometric mean).
`Cl.[2H]C([2H])([2H])CC(=O)c1cnc(NC(=O)C2CC2)cc1Nc1cccc(-c2ncn(C([2H])([2H])[2H])n2)c1OC` has a renal clearance of 405 mL/min (human; oral, 20 mg).
With `CCN1C(=O)N(c2c(F)c(OC)cc(OC)c2F)Cc2cnc3[nH]c(CN4CCOCC4)cc3c21` the renal clearance was 3.47 mL/min (human).
For `C[C@@H](Oc1ccc(S(C)(=O)=O)cc1C(=O)N1C[C@@H]2C[C@]2(c2cc(C(F)(F)F)on2)C1)C(F)(F)F`, the renal clearance was 6.25 mL/min (young healthy humans, plasma and urine; oral, 10 mg, 0 to 24 h, single dose).
`C[C@@H](Cn1ccc(-c2ccc(C#N)c(Cl)c2)n1)NC(=O)c1cc([C@@H](C)O)[nH]n1` has a renal clearance of 8.49 mL/min (item: darolutamide; human, fasted; oral, 300 mg darolutamide tablet, geometric mean).
`CN[C@@H]1COc2c(S(=O)(=O)NC(=O)Nc3c4c(cc5c3CCC5)CCC4)cnn2C1` has a renal clearance of 5.8 mL/min (human, urine; oral, 1800 mg, 0-48 h).
`CN(C)C(=O)c1cc2cnc(Nc3ccc(N4CCNCC4)cn3)nc2n1C1CCCC1` has a renal clearance of 52.2 mL/min (human, mild renal impairment, plasma and urine; oral, 400 mg, geometric mean).
`Cn1cc(-c2cn3nccc3c(-c3cnn([C@]4(CC#N)C[C@@H](C#N)C4)c3)n2)cn1` has a renal clearance of 5 mL/min (human, urine; 30 mg once daily, day 10, multiple dose, geometric mean).
With `CC[C@H](C)[C@@H]([C@@H](CC(=O)N1CCC[C@H]1[C@H](OC)[C@@H](C)C(=O)N[C@@H](Cc1ccccc1)C(=O)NCCCO)OC)N(C)C(=O)[C@@H](NC(=O)[C@H](C(C)C)N(C)C)C(C)C` the renal clearance was 0.602 mL/min (human).
For `CC(C)n1c(C2CCNCC2)nc2c([N+](=O)[O-])c(Br)c(Br)cc21`, the renal clearance was 9.5 mL/min (human, urine; oral, 150 mg single dose).
